# Assay results from different studies.
# Parts stem from different laboratories: compare values within a part only.
# Chain of UniProt P19525 (whole entry, looked up): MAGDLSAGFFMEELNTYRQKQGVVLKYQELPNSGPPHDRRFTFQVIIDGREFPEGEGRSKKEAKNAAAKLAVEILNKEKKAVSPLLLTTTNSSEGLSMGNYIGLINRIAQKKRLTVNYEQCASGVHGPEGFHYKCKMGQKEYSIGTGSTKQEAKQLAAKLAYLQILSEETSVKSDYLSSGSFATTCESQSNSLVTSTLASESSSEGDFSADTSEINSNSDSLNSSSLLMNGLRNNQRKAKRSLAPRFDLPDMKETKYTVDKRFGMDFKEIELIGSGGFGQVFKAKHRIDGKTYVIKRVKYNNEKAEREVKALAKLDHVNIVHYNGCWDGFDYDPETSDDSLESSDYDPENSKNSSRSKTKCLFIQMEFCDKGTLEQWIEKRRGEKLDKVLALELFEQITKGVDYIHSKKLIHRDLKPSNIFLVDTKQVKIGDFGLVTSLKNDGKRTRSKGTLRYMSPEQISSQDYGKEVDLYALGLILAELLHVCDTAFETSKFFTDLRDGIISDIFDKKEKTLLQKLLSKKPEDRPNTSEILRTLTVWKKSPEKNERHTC
# Chain of UniProt P10721 (whole entry, unmodified, looked up): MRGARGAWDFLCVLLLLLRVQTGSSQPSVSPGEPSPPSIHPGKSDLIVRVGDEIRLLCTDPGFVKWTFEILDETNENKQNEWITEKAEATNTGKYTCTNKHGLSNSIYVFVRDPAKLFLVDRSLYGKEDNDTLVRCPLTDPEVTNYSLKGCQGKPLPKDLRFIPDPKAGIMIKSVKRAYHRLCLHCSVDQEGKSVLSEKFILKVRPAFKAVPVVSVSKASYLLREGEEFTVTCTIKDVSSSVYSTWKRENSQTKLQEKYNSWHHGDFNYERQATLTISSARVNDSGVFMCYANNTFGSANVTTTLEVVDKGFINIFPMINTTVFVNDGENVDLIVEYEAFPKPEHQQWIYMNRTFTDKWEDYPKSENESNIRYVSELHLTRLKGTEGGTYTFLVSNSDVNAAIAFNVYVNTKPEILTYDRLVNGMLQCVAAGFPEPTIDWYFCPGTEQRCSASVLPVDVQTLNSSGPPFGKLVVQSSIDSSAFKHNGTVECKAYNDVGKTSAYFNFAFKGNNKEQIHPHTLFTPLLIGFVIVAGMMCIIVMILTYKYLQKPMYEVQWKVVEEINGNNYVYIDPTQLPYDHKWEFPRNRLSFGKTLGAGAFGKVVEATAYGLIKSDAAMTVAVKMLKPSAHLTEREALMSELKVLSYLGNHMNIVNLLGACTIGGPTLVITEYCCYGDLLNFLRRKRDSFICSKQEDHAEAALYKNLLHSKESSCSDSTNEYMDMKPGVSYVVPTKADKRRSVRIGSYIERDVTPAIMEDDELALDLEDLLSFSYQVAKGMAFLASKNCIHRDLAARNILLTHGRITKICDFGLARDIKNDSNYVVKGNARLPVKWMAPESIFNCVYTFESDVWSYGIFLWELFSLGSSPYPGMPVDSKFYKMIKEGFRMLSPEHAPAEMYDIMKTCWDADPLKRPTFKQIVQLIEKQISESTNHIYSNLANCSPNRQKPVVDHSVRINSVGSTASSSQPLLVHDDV
# Chain of UniProt Q02763 (whole entry, looked up): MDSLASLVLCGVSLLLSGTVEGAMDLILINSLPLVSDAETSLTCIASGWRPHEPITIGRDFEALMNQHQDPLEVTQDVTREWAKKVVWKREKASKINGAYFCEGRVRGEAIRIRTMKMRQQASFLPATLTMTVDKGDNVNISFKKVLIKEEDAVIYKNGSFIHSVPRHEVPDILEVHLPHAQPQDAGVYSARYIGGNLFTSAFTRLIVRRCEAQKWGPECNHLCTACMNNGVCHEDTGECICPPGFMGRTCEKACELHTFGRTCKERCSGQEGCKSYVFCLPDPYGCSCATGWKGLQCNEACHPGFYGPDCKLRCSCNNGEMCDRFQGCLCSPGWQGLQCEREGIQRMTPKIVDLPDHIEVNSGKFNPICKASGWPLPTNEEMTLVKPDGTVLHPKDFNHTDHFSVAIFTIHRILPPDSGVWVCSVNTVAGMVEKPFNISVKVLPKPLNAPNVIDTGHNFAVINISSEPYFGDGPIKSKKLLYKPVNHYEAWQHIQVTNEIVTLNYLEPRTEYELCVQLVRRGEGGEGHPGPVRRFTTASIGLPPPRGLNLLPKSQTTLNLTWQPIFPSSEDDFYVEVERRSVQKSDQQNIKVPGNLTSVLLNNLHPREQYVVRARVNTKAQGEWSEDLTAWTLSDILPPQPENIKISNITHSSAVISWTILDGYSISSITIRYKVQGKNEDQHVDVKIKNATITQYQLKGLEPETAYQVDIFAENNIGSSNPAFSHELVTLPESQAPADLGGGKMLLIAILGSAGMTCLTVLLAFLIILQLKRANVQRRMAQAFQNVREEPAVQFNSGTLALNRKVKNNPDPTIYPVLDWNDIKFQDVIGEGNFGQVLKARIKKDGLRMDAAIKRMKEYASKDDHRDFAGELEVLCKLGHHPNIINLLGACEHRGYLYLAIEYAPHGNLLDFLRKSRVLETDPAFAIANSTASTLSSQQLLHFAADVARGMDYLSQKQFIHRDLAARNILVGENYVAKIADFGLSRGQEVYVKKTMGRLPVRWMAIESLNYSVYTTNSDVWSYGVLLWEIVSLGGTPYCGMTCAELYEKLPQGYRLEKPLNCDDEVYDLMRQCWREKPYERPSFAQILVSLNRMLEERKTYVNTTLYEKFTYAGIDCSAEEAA
# Chain of UniProt P21709 (whole entry, looked up): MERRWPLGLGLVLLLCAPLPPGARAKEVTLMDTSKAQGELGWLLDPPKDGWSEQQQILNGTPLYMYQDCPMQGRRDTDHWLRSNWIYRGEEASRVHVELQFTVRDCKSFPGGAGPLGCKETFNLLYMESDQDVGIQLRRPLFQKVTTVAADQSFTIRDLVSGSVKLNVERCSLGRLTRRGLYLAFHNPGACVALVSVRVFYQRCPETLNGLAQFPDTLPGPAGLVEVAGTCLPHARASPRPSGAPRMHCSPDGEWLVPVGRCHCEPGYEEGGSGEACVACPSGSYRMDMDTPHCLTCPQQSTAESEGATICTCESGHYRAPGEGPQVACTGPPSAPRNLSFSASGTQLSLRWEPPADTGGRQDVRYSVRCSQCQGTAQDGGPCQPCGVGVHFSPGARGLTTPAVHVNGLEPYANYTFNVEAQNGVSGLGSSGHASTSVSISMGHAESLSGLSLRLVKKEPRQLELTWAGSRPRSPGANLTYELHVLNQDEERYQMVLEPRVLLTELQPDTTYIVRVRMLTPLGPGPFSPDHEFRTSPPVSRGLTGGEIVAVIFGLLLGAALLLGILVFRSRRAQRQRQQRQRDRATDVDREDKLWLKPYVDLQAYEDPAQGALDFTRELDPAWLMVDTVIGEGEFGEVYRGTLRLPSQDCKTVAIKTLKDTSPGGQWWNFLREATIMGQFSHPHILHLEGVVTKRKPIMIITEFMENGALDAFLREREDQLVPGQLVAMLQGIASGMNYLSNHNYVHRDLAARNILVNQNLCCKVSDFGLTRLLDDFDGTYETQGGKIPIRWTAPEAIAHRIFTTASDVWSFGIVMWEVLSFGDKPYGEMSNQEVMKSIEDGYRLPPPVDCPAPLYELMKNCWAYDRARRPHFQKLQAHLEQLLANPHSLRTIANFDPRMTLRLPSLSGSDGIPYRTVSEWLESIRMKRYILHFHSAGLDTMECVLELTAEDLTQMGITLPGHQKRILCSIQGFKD
# Chain of UniProt Q04771 (whole entry, looked up): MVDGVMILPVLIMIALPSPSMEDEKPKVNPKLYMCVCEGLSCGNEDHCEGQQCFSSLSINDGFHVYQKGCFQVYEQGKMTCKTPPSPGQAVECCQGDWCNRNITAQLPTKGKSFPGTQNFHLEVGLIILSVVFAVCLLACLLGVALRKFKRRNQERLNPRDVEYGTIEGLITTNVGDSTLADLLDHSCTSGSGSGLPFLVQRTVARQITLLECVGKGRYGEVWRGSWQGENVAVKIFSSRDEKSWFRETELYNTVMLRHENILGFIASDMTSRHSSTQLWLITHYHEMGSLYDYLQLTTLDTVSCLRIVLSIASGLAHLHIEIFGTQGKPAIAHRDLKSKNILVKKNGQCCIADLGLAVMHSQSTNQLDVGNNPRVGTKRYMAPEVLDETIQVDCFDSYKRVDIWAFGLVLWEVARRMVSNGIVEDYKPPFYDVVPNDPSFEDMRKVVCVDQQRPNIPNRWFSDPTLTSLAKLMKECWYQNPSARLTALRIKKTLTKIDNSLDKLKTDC
# Chain of UniProt O15264 (whole entry, looked up): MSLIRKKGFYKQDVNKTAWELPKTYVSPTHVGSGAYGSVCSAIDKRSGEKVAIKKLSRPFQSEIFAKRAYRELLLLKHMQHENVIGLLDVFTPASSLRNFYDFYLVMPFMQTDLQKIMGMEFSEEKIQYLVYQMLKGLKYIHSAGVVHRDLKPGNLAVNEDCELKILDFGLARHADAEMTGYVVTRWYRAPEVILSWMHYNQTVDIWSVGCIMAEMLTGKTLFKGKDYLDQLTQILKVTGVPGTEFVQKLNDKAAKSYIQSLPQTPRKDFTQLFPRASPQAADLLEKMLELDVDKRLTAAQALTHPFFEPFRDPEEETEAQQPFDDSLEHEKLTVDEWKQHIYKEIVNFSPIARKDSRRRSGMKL

# Block 1
# Target: Bromodomain-containing protein 4, BD1 (BRD4, Homo sapiens, UniProt O60885)
# Read-out: acetyl-histone H4 peptide binding
# Method: AlphaScreen displacement
# Tested at: 50 µM
SMILES,inhibition [%]
COc1ccc(-c2cc3nccn3c(Nc3ncccc3C(N)=O)n2)cc1OC,16.8
O=C(O)CCC(=O)Nc1ccccc1-c1nc2ccccc2[nH]c1=O,13.4
O=C1Nc2ccc(S(=O)(=O)O)cc2C1=C1Nc2ccccc2C1=NO,75.7
Nc1nc(Nc2ccccc2)sc1C(=O)c1ccc(Cl)s1,67.8
COc1ccc(-c2nnc3ccc(SCC(=O)N4CCC(C)CC4)nn23)cc1OC,6.8
O=C1NC(=O)C(=Cc2ccc(-c3cc(Cl)ccc3Cl)o2)S1,2.45
Nc1nccc(-c2c(-c3ccc(F)cc3)ncn2C2CCCCC2)n1,15.8
CCOc1cc2ncnc(Nc3cccc(Br)c3)c2cc1OCC,31.6
O=C(Nc1ccc2[nH]ncc2c1)c1c(F)c(F)c(F)c(F)c1F,-1.6
CC1CCCCN1CCNc1ccc2nnc(-c3ccc(F)cc3)n2n1 (stereo not shown),8.75
COC(=O)C(C)Sc1ccc2nnc(-c3cccc(F)c3)n2n1 (stereo not shown),14.1
Cc1ccc2c(c1)C(=NNC(=O)c1cccc(O)c1)C(=O)N2,41.2
COC(=O)c1sc2nc[nH]c(=O)c2c1C,3.75
CN(C)CCCn1cc(C2=C(c3c[nH]c4ccccc34)C(=O)NC2=O)c2ccccc21.Cl,86
CN1C=CC=CC1=C(C#N)c1nc2ccccc2s1,64
Clc1ccc(CNc2cncc(-c3ccsc3)c2)cc1,13.8
c1cncc(-c2cnc3c(N4CCOCC4)nccn23)c1,7.6

# Block 2
# SMILES: CS(=O)(=O)c1cc(C2(NC(=O)c3cncc4c3cnn4-c3ccc(F)cc3)CC2)ccn1
# Read-out: cell-free assay
# Method: competition with immobilised ligand
# Tested at: 1 µM
target,remaining binding
"Serine/threonine-protein kinase 25 (STK25, Homo sapiens, UniProt O00506)",100%
"LIM domain kinase 1 (LIMK1, Homo sapiens, UniProt P53667)",100%
"Serine/threonine-protein kinase Nek2 (NEK2, Homo sapiens, UniProt P51955)",93%
"Fibroblast growth factor receptor 3 (FGFR3, Homo sapiens, UniProt P22607, G697C)",91%
"SNF-related serine/threonine-protein kinase (SNRK, Homo sapiens, UniProt Q9NRH2)",88%
"Mast/stem cell growth factor receptor Kit (KIT, Homo sapiens, UniProt P10721, A829P)",100%
"Ribosomal protein S6 kinase alpha-4, N-terminal kinase domain (RPS6KA4, Homo sapiens, UniProt O75676)",85%
"Phosphatidylinositol 4,5-bisphosphate 3-kinase catalytic subunit alpha isoform (PIK3CA, Homo sapiens, UniProt P42336, H1047L)",100%
"Serine/threonine-protein kinase 36 (STK36, Homo sapiens, UniProt Q9NRP7)",100%
"Tyrosine-protein kinase ABL1, phosphorylated (ABL1, Homo sapiens, UniProt P00519, T315I)",73%
"Peripheral plasma membrane protein CASK (CASK, Homo sapiens, UniProt O14936)",100%
"Serine/threonine-protein kinase WNK2 (WNK2, Homo sapiens, UniProt Q9Y3S1)",75%
"Serine/threonine-protein kinase Nek3 (NEK3, Homo sapiens, UniProt P51956)",100%
"Activin receptor type-1 (ACVR1, Homo sapiens, UniProt Q04771)",100%
"Angiopoietin-1 receptor (TEK, Homo sapiens, UniProt Q02763)",100%
"Serine/threonine-protein kinase 32A (STK32A, Homo sapiens, UniProt Q8WU08)",71%
"Bone morphogenetic protein receptor type-1B (BMPR1B, Homo sapiens, UniProt O00238)",82%
"Mitogen-activated protein kinase 1 (MAPK1, Homo sapiens, UniProt P28482)",94%
"Ephrin type-A receptor 1 (EPHA1, Homo sapiens, UniProt P21709)",100%
"Cyclin-dependent kinase 13 (CDK13, Homo sapiens, UniProt Q14004)",100%
"Serine/threonine-protein kinase DCLK1 (DCLK1, Homo sapiens, UniProt O15075)",75%
"Interferon-induced, double-stranded RNA-activated protein kinase (EIF2AK2, Homo sapiens, UniProt P19525)",60%
"Mitotic checkpoint serine/threonine-protein kinase BUB1 (BUB1, Homo sapiens, UniProt O43683)",85%
"Mitogen-activated protein kinase 13 (MAPK13, Homo sapiens, UniProt O15264)",93%
"Calcium/calmodulin-dependent protein kinase type 1B (PNCK, Homo sapiens, UniProt Q6P2M8)",78%

# Block 3
# Target: Serine/threonine-protein kinase NLK (NLK, Homo sapiens, UniProt Q9UBE8)
# Read-out: enzyme activity
# Mode: inhibitor
# Tested at: 0.5 µM
# Relative to: control
# Target sequence (Q9UBE8 1-527): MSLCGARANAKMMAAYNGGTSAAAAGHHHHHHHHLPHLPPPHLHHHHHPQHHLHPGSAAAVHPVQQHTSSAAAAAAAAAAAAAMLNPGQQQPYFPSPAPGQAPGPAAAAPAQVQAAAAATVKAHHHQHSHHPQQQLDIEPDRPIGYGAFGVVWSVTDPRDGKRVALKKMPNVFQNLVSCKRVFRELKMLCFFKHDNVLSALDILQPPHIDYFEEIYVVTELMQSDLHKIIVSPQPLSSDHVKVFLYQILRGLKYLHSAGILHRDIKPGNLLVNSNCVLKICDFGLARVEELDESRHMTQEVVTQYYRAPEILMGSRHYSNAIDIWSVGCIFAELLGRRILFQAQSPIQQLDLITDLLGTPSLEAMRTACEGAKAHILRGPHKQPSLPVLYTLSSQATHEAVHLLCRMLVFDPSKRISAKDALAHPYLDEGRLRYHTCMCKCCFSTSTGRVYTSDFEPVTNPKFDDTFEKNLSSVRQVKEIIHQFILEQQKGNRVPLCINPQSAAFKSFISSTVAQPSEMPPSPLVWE
Compound,remaining activity [%]
Nc1ncnc2c1cnn2-c1ccccc1,92.5
COc1ccc(S(=O)(=O)N(CCO)c2ccccc2CN(C)CC=Cc2ccc(Cl)cc2)cc1,101
Cc1cc(Nc2nc(-c3ccccc3)nc3ccccc23)n[nH]1,94.7
O=S(=O)(NCCNC/C=C/c1ccc(Br)cc1)c1cccc2cnccc12,94.9
NC(=O)c1ccc(N(C(N)=O)c2c(F)cccc2F)nc1-c1ccc(F)cc1F,15.8
Cc1ccc(NC2=CC(=O)c3sc(C)nc3C2=O)cc1,107
Oc1ccc(Nc2nc(-c3ccc(Cl)cc3)cs2)cc1,101
CC(=O)c1ccc(N2CCOCC2)cc1O,95.6
CC(C)(C)n1nc(Cc2cccc3ccccc23)c2c(N)ncnc21,65.7
N#CC(=C(N)Sc1ccc(N)cc1)c1ccccc1C(F)(F)F,108
O=C1NC(=O)C(c2c[nH]c3ccccc23)=C1c1c[nH]c2ccccc12,103
COc1cc(Nc2c(C#N)cnc3cc(OCCCN4CCN(C)CC4)c(OC)cc23)c(Cl)cc1Cl,101
CC#CC(=O)Nc1cc2c(Nc3ccc(F)c(Cl)c3)ncnc2cn1,99.7
CCCC(=O)Oc1ccc2[nH]c(C(=O)c3cc4ccccc4[nH]3)cc2c1,106
Fc1ccc(-c2nc3n(c2-c2ccncc2)CCS3)cc1,41.1
Nc1nc(Nc2ccc(S(N)(=O)=O)cc2)nn1C(=O)c1c(F)cccc1F,86
Cc1cncc2cccc(S(=O)(=O)N3CCCN(C(=O)CN)C[C@@H]3C)c12,99.6
CC[n+]1c(/C=C/N(C)c2ccccc2)n(-c2ccccc2)c2ccc(-c3nc4ccccc4s3)cc21,105
CCc1[nH]c(-c2ccc(OC)cc2)nc1-c1ccncc1,103
CSc1nc(-c2ccnc(N[C@@H](C)c3ccccc3)c2)c(-c2ccc(F)cc2)[nH]1 (racemic),30.7
O=C1Cc2c([nH]c3ccc([N+](=O)[O-])cc23)-c2ccccc2N1,95.5
Nc1nccc(-c2c(-c3ccc(F)cc3)ncn2C2CCNCC2)n1,12.1

# Block 4
# Target: Calcium/calmodulin-dependent protein kinase type II subunit alpha (CAMK2A, Homo sapiens, UniProt Q9UQM7)
# Chain of UniProt Q9UQM7 (whole entry, looked up): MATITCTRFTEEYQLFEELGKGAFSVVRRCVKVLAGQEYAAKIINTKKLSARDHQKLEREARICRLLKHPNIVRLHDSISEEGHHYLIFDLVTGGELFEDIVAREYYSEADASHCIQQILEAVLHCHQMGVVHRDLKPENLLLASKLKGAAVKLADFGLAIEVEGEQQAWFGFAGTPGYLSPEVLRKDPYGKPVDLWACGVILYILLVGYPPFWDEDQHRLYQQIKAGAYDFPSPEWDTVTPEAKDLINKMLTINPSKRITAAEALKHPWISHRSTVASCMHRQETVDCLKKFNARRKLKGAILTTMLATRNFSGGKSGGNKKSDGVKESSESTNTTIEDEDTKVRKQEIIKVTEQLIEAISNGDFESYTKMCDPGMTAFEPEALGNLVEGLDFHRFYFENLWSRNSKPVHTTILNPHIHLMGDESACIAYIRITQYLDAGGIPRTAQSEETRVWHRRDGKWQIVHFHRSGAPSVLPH
# Read-out: enzyme activity
# Mode: inhibitor
# Tested at: 10 µM
SMILES,inhibition [%]
CC(C)(O)CC[C@@H](O)[C@](C)(O)[C@H]1CC=C2C3=C(CC[C@@]21C)[C@@]1(C)C[C@H](O)[C@H](O)C[C@H]1C(=O)C3,4
O=C(O)C(=O)c1ccccc1,-4
C[N+]1(C)[C@@H]2CC[C@H]1C[C@@H](OC(=O)C(O)c1ccccc1)C2 (stereo partly shown),-10
O=C(O)c1ccc(NC(=O)[C@H](Cc2ccc(O)cc2)NC(=O)c2ccccc2)cc1,-3
CN[C@@H]1[C@H](O[C@H]2[C@H](O[C@H]3[C@H](O)[C@@H](O)[C@H](N=C(N)N)[C@@H](O)[C@@H]3N=C(N)N)O[C@@H](C)[C@]2(O)C=O)O[C@@H](CO)[C@H](O)[C@H]1O,5
C/C=C(/C)C(=O)O[C@H]1C(C)=C[C@]23C(=O)[C@@H](C=C4COC(C)(C)O[C@H]4[C@]12O)[C@H]1[C@@H](C[C@H]3C)C1(C)C,-43
CCCCCN=C(N)N/N=C/c1c[nH]c2ccc(OC)cc12,-4
OCC(O)c1ccc(O)c(O)c1 (stereo not shown),-43
C[C@@H]1O[C@@H](O[C@@H]2[C@@H](O)[C@H](OCCc3ccc(O)c(O)c3)O[C@H](CO[C@@H]3O[C@H](CO)[C@@H](O)[C@H](O)[C@H]3O)[C@H]2OC(=O)/C=C/c2ccc(O)c(O)c2)[C@H](O)[C@H](O)[C@H]1O,-19
CC1=C2C(=O)O[C@@H](c3ccoc3)[C@]2(C)CCC1,-4
COc1ccc2c3ccnc4ccc(=O)n(c2c1)c43,-29
CC(=O)O[C@]1(C(C)=O)CC[C@H]2[C@@H]3C[C@H](C)C4=CC(=O)CC[C@]4(C)[C@H]3CC[C@@]21C,7

# For quick reference, copied from above (block 3):
Compound,remaining activity [%]
COc1ccc(S(=O)(=O)N(CCO)c2ccccc2CN(C)CC=Cc2ccc(Cl)cc2)cc1,101
Cc1cc(Nc2nc(-c3ccccc3)nc3ccccc23)n[nH]1,94.7
O=S(=O)(NCCNC/C=C/c1ccc(Br)cc1)c1cccc2cnccc12,94.9
NC(=O)c1ccc(N(C(N)=O)c2c(F)cccc2F)nc1-c1ccc(F)cc1F,15.8
Cc1ccc(NC2=CC(=O)c3sc(C)nc3C2=O)cc1,107
Oc1ccc(Nc2nc(-c3ccc(Cl)cc3)cs2)cc1,101
CC(=O)c1ccc(N2CCOCC2)cc1O,95.6
CC(C)(C)n1nc(Cc2cccc3ccccc23)c2c(N)ncnc21,65.7
N#CC(=C(N)Sc1ccc(N)cc1)c1ccccc1C(F)(F)F,108
